Assay results pooled from the literature.
Every numbered part comes from another study and shows a few of its results, in no order. “And” joins repeats or separate records; there may be more than shown.
Chain of UniProt Q16513 (whole entry, looked up): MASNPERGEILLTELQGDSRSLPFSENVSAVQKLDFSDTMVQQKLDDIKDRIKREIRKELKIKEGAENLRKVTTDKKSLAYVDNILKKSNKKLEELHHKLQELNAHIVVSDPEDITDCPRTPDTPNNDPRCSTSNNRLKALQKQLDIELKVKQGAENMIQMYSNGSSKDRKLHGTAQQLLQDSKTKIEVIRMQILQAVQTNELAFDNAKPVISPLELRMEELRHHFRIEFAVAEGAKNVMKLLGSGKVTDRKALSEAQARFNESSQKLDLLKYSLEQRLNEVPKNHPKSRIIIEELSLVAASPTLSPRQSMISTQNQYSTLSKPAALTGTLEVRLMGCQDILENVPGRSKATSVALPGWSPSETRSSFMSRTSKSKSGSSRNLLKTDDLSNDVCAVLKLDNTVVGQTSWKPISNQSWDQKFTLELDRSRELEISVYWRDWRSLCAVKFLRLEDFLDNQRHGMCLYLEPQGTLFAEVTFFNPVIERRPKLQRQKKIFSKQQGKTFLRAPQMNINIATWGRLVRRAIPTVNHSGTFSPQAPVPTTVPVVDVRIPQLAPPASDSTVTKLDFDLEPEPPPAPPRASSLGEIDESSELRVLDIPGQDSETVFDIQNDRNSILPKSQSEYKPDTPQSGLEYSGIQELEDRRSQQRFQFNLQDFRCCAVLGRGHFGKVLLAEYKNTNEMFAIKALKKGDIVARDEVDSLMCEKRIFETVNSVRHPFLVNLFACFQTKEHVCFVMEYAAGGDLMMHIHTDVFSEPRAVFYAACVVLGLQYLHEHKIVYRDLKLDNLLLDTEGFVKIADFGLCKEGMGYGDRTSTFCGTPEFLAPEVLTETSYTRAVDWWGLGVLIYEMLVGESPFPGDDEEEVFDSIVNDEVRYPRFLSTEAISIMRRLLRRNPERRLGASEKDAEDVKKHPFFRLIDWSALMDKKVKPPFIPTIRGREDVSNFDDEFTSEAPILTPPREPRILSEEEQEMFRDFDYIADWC
Chain of UniProt P11362 (whole entry, looked up): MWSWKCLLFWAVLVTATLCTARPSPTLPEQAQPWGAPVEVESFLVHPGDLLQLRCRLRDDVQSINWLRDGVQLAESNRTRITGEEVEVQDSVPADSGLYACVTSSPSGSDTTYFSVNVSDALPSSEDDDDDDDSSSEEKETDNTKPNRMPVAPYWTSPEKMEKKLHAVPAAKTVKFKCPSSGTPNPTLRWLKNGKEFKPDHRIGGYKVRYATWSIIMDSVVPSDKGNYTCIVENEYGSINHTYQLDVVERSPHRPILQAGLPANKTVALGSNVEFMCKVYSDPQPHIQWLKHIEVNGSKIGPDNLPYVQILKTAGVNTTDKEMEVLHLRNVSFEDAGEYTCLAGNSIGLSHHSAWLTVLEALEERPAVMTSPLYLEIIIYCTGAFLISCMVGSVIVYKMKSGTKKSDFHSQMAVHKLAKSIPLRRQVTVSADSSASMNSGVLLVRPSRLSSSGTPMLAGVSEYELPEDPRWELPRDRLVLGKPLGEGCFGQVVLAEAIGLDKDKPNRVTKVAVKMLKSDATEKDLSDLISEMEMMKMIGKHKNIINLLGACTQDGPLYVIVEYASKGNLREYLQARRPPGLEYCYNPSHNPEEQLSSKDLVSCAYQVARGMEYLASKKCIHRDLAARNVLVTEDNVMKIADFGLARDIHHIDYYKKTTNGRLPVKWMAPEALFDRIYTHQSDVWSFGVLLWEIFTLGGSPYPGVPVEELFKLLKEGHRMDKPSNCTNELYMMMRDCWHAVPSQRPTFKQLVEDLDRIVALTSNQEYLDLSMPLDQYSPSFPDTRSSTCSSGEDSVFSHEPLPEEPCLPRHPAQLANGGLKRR
Chain of UniProt Q13882 (whole entry, looked up): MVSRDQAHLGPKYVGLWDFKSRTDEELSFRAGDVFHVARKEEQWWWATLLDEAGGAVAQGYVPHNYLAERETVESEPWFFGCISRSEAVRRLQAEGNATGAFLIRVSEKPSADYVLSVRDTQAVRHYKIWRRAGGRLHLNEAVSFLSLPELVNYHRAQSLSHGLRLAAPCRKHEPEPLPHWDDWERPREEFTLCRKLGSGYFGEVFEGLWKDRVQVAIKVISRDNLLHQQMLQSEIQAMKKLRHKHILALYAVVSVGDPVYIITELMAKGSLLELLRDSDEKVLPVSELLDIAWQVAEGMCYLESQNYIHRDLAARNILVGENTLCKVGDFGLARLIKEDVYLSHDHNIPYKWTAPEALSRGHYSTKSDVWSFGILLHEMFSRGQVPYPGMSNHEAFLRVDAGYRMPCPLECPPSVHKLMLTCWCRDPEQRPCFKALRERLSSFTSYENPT

Study 1 — species: human; sample: microsomes or S9; tested at: 2 µM; time: 0.5 h
| SMILES | remaining compound |
| --- | --- |
| COc1cc(=O)[nH]cc1C(=O)N1CCC[C@H](CN2CCOCC2)C1 | 85.4% |
| COc1ccc(-c2cc(C(=O)N3CCc4ccccc4C3)n[nH]2)cc1S(=O)(=O)N(C)C | 10.3% |
| COc1ncc(NC(=O)CCCNC(=O)OC(C)(C)C)cc1C#N | 75.1% |
| O=c1ccc2cc(S(=O)(=O)N3CCOCC3)ccc2[nH]1 | 78.6% |
| CCC1CCCCN1C(=O)c1sc2nc(C)nc(N(CC)CC)c2c1C (stereo not drawn) | 0.207% |
| CCS(=O)(=O)Nc1ccc(-n2nc(C)c(-c3ccc(Cl)cc3)cc2=O)cc1 | 54.6% |
| COc1cc(=O)n(-c2ccccc2)cc1C(=O)NCC1CCCO1 (stereo not drawn) | 87.9% |
| Cc1cc(=O)n2c3ccccc3nc2n1CC(=O)c1ccco1 | 19.5% |
| COc1ccc(C2N=C(O)c3ccccc3O2)c(OC)c1OC (stereo not drawn) | 4.3% |
| CC1CCNC2CN(c3nc4c(cc3F)c(=O)c(C(=O)O)cn4-c3ncc(F)cc3F)CC12 (stereo not drawn) | 99.1% |

Study 2 — observed: cell-free assay; technique: competition with immobilised ligand; tested at: 1 µM
Compound: COc1ccc2c(c1)O[C@H](c1ccc(OC)c(OC)c1)C[C@@H]2NC(=O)C1(c2ccc3c(c2)OC(F)(F)O3)CC1
| target | remaining binding [%] |
| --- | --- |
| Protein-tyrosine kinase 6 (PTK6, Homo sapiens, UniProt Q13882) | 100 |
| Inhibitor of nuclear factor kappa-B kinase subunit alpha (CHUK, Homo sapiens, UniProt O15111) | 89 |
| Epidermal growth factor receptor (EGFR, Homo sapiens, UniProt P00533, del746-750) | 64 |
| Cyclin-dependent kinase 18 (CDK18, Homo sapiens, UniProt Q07002) | 100 |
| Serine/threonine-protein kinase N2 (PKN2, Homo sapiens, UniProt Q16513) | 100 |
| Mitogen-activated protein kinase kinase kinase 2 (MAP3K2, Homo sapiens, UniProt Q9Y2U5) | 91 |
| Ribosomal protein S6 kinase alpha-6, N-terminal kinase domain (RPS6KA6, Homo sapiens, UniProt Q9UK32) | 87 |
| Serine/threonine-protein kinase 26 (STK26, Homo sapiens, UniProt Q9P289) | 84 |
| Serine/threonine-protein kinase ULK3 (ULK3, Homo sapiens, UniProt Q6PHR2) | 90 |
| Epidermal growth factor receptor (EGFR, Homo sapiens, UniProt P00533, A750P/del747-749) | 98 |
| Fibroblast growth factor receptor 1 (FGFR1, Homo sapiens, UniProt P11362) | 87 |
| Epidermal growth factor receptor (EGFR, Homo sapiens, UniProt P00533, L861Q) | 100 |
| Epidermal growth factor receptor (EGFR, Homo sapiens, UniProt P00533, T790M) | 87 |
| Serine/threonine-protein kinase TAO3 (TAOK3, Homo sapiens, UniProt Q9H2K8) | 100 |
| Serine/threonine-protein kinase Chk2 (CHEK2, Homo sapiens, UniProt O96017) | 100 |
| Tyrosine-protein kinase ABL1, phosphorylated (ABL1, Homo sapiens, UniProt P00519, H396P) | 98 |

Study 3 — observed: enzyme activity; mode: inhibitor; tested at: 77 µM; reference: untreated
Target: DNA polymerase theta, ATPase domain (POLQ, Homo sapiens, UniProt O75417)
Chain of UniProt O75417 (whole entry, unmodified, looked up): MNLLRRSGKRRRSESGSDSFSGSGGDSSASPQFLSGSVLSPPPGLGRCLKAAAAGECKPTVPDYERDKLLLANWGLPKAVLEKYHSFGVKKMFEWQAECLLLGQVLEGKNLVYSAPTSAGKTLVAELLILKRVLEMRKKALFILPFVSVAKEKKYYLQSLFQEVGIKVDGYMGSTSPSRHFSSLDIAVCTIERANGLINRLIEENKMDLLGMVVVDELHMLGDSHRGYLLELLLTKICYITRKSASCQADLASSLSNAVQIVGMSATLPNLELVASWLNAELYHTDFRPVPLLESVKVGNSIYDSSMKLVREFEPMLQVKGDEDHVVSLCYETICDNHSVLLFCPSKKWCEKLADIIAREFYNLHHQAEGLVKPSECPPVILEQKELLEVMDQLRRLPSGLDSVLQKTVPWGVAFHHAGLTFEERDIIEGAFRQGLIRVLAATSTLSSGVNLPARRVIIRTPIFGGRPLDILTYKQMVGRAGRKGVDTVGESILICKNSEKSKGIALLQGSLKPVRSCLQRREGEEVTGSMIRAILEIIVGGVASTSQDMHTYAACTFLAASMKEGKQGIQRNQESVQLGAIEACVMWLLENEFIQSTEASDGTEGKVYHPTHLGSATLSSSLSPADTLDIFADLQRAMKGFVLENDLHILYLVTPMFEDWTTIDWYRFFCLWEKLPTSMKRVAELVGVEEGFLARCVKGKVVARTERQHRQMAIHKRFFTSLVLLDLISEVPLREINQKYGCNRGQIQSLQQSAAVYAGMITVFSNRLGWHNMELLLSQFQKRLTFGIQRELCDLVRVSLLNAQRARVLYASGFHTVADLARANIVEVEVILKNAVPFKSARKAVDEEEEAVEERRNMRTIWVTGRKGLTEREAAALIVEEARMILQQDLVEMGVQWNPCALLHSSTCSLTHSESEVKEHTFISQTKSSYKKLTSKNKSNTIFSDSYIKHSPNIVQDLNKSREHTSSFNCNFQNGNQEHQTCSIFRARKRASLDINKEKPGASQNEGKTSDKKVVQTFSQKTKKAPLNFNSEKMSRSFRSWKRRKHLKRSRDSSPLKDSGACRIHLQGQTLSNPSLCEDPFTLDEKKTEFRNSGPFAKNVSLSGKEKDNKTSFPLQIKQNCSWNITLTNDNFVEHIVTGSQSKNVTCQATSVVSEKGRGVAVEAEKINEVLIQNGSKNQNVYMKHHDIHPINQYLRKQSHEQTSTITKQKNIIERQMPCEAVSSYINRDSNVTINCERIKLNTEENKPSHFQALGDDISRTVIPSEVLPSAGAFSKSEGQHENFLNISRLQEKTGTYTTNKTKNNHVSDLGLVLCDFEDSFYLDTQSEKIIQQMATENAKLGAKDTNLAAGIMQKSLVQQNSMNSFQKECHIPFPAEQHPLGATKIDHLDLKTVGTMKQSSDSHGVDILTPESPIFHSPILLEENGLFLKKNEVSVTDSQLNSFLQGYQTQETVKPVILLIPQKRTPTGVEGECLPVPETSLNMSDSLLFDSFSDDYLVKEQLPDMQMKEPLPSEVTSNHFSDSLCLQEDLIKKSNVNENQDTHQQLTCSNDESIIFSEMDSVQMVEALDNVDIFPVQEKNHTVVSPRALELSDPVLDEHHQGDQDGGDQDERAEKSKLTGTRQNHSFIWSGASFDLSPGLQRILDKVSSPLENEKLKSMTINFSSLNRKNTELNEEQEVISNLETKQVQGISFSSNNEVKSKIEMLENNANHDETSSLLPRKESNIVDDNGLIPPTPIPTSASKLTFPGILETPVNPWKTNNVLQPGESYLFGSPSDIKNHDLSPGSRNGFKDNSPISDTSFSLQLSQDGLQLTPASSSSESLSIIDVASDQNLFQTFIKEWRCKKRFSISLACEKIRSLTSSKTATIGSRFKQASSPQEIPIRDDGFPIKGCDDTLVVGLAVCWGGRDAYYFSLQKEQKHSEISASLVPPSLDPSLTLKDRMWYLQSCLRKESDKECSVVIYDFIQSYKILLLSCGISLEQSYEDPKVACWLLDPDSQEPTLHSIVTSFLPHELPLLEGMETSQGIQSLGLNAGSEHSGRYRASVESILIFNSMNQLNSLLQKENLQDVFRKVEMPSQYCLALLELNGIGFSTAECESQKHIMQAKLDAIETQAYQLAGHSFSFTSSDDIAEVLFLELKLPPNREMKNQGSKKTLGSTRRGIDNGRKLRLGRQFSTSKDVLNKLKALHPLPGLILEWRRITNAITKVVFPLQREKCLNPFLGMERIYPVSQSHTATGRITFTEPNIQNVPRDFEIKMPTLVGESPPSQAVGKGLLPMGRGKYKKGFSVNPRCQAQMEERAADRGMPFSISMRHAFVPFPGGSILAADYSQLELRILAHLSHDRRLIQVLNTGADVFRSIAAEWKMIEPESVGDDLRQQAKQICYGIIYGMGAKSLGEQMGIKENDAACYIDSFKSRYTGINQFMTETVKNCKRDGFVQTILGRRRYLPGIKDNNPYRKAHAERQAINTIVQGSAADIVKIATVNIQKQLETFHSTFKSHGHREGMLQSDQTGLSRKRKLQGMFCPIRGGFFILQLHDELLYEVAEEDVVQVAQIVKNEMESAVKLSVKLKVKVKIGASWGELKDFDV
| SMILES | remaining activity |
| --- | --- |
| COc1ccc([C@@H]2CC(=O)c3c(O)cc(O[C@@H]4O[C@H](CO[C@@H]5O[C@@H](C)[C@H](O)[C@@H](O)[C@H]5O)[C@@H](O)[C@H](O)[C@H]4O)cc3O2)cc1O | 95.4% and 93.6% |
| CCCC(=O)NCCc1c2n(c3ccc(OC)cc13)CCCc1ccccc1-2 | 103% |
| C=CCn1c(=O)c2c(nc(-c3ccc(S(=O)(=O)O)cc3)n2C)n(C)c1=O | 102% |
| Clc1ccc2nsnc2c1NC1=NCCN1 | 98.7% |
| CN1CCCC(n2nc(Cc3ccc(Cl)cc3)c3ccccc3c2=O)CC1 (stereo not drawn) | 111% |
| NCCC[C@](N)(C(=O)O)C(F)F (racemic) | 104% |
| Cc1cncc(CN2CCC(=C3c4ccc(Cl)cc4CCc4cccnc43)CC2)c1 | 98.2% |

Study 4 — observed: enzyme activity; mode: inhibitor; tested at: 1 µM
SMILES: CC#CC(=O)N1CCC[C@H]1c1nc(-c2ccc(C(=O)Nc3ccccn3)cc2)c2c(N)nccn12
| target | inhibition [%] |
| --- | --- |
| Ephrin type-A receptor 8 (EPHA8, Homo sapiens, UniProt P29322) | 2 |
| RAC-gamma serine/threonine-protein kinase (AKT3, Homo sapiens, UniProt Q9Y243) | 0 |
| Receptor-type tyrosine-protein kinase FLT3 (FLT3, Homo sapiens, UniProt P36888, R834Q) | 0 |
| Serine/threonine-protein kinase STK11 (STK11, Homo sapiens, UniProt Q15831) | 21 |
| Ephrin type-A receptor 5 (EPHA5, Homo sapiens, UniProt P54756) | 8 |
| Death-associated protein kinase 3 (DAPK3, Homo sapiens, UniProt O43293) | 13 |
| Mitogen-activated protein kinase 12 (MAPK12, Homo sapiens, UniProt P53778) | 34 |
| cAMP-dependent protein kinase catalytic subunit alpha (PRKACA, Homo sapiens, UniProt P17612) | 6 |
| Ephrin type-B receptor 4 (EPHB4, Homo sapiens, UniProt P54760) | 9 |
| cGMP-dependent protein kinase 1 (PRKG1, Homo sapiens, UniProt Q13976) | 1 |
| Tyrosine-protein kinase Mer (MERTK, Homo sapiens, UniProt Q12866) | 0 |
| STE20/SPS1-related proline-alanine-rich protein kinase (STK39, Homo sapiens, UniProt Q9UEW8) | 4 |

Some of these lines once more (study 1):
| SMILES | remaining compound |
| --- | --- |
| CCC1CCCCN1C(=O)c1sc2nc(C)nc(N(CC)CC)c2c1C (stereo not drawn) | 0.207% |
| CCS(=O)(=O)Nc1ccc(-n2nc(C)c(-c3ccc(Cl)cc3)cc2=O)cc1 | 54.6% |
| COc1cc(=O)n(-c2ccccc2)cc1C(=O)NCC1CCCO1 (stereo not drawn) | 87.9% |
| Cc1cc(=O)n2c3ccccc3nc2n1CC(=O)c1ccco1 | 19.5% |
| COc1ccc(C2N=C(O)c3ccccc3O2)c(OC)c1OC (stereo not drawn) | 4.3% |
